Experimental data collected from several papers.
Numbered parts are unrelated; each lists some results of a single study. Several values in a cell are separate wells, animals, samples, runs or records.
Chain of UniProt P25098 (whole entry, looked up): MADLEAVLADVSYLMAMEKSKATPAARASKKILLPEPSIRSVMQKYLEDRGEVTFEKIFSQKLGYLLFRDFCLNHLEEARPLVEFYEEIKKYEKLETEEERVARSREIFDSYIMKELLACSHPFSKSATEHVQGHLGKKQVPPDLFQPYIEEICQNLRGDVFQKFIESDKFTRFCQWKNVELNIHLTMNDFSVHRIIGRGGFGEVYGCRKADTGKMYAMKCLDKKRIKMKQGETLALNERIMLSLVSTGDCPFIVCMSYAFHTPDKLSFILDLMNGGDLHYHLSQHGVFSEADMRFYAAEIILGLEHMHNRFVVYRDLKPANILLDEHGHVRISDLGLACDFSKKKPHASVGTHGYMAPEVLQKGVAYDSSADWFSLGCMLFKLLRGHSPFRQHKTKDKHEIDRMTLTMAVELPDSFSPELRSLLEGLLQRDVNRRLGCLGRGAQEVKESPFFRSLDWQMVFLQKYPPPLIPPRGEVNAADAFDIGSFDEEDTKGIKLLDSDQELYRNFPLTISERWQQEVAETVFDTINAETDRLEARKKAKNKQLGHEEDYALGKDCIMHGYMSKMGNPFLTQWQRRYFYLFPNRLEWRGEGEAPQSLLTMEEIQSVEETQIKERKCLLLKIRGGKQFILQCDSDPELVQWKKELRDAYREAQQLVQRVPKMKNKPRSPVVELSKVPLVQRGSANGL
Chain of UniProt Q9Y243 (whole entry, looked up): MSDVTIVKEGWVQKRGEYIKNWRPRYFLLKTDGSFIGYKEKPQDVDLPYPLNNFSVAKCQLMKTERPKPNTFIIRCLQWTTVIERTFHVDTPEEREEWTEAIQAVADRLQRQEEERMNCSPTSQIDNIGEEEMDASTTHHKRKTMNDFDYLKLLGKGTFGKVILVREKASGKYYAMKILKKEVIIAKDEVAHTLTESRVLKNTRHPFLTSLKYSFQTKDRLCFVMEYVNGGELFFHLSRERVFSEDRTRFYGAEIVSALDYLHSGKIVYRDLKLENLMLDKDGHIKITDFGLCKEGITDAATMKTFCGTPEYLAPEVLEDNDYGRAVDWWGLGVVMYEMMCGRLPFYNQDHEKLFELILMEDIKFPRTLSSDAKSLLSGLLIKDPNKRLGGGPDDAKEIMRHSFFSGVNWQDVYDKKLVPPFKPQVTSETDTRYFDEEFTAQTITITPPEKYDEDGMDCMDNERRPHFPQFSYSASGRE
Chain of UniProt Q8IYT8 (whole entry, looked up): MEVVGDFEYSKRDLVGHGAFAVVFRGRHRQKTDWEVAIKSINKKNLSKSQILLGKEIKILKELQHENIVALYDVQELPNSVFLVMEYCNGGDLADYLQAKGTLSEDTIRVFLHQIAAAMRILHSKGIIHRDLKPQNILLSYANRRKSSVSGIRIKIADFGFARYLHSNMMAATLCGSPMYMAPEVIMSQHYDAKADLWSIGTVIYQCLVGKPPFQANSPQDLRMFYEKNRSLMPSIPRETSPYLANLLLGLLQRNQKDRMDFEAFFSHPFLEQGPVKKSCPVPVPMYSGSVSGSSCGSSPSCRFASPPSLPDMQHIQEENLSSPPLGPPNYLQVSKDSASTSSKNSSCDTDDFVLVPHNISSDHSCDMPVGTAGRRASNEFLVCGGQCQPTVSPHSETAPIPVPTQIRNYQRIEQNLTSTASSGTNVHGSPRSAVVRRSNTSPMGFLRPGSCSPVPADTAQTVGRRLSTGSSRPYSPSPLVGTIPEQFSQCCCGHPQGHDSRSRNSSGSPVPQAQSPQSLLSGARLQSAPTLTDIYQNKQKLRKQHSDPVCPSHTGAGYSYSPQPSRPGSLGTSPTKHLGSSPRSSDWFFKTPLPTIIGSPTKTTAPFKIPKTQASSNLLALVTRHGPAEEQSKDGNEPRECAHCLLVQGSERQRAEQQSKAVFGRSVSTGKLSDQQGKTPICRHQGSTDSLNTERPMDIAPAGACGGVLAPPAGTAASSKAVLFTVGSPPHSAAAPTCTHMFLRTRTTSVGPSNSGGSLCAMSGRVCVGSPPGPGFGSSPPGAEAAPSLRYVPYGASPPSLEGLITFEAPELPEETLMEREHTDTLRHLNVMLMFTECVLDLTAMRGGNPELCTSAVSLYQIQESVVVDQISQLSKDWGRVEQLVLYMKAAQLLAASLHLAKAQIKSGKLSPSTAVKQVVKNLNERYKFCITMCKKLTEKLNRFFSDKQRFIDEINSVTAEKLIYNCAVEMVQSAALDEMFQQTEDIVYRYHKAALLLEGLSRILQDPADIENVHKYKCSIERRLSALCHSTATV
Chain of UniProt P48730 (whole entry, looked up): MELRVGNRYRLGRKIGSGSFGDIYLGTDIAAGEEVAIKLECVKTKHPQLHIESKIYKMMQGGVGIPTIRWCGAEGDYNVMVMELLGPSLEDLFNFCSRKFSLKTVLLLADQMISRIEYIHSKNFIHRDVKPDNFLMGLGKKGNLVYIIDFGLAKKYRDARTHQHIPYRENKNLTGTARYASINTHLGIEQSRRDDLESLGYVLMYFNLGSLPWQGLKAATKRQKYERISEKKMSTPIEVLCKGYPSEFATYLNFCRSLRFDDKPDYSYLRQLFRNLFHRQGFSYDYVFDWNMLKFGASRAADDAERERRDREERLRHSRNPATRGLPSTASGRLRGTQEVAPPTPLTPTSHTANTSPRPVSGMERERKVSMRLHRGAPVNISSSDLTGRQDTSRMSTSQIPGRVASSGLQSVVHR
Chain of UniProt P51813 (whole entry, looked up): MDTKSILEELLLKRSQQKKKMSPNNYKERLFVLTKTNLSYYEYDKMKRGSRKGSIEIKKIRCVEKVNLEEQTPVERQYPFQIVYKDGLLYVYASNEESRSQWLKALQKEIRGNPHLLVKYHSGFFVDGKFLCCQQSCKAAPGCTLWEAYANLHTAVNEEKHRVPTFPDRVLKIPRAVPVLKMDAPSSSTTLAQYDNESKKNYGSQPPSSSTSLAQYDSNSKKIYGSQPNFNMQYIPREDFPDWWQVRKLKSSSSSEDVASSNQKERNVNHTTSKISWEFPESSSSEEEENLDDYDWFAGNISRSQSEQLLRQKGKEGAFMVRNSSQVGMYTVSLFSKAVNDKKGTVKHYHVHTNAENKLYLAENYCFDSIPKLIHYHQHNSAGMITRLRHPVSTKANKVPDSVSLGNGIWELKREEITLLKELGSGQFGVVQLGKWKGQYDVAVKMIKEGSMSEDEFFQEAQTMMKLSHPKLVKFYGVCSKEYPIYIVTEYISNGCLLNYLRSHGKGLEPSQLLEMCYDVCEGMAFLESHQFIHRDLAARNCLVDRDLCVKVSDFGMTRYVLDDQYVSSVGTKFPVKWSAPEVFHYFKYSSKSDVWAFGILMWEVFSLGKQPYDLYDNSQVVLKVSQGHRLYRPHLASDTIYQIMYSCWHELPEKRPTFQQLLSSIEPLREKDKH
Chain of UniProt Q8WU08 (whole entry, looked up): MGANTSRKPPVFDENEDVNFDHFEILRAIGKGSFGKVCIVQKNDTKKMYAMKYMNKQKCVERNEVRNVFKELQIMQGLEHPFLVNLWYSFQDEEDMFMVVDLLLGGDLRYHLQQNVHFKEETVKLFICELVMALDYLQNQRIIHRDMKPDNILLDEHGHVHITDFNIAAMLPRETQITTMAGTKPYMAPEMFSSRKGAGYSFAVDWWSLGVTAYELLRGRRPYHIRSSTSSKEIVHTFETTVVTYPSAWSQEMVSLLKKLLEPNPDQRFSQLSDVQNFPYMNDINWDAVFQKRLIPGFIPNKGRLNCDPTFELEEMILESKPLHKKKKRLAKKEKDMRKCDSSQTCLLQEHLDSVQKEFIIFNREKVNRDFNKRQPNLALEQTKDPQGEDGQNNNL

Set 1
Target: Non-receptor tyrosine-protein kinase TYK2 (TYK2, Homo sapiens, UniProt P29597)
Chain of UniProt P29597 (whole entry, looked up): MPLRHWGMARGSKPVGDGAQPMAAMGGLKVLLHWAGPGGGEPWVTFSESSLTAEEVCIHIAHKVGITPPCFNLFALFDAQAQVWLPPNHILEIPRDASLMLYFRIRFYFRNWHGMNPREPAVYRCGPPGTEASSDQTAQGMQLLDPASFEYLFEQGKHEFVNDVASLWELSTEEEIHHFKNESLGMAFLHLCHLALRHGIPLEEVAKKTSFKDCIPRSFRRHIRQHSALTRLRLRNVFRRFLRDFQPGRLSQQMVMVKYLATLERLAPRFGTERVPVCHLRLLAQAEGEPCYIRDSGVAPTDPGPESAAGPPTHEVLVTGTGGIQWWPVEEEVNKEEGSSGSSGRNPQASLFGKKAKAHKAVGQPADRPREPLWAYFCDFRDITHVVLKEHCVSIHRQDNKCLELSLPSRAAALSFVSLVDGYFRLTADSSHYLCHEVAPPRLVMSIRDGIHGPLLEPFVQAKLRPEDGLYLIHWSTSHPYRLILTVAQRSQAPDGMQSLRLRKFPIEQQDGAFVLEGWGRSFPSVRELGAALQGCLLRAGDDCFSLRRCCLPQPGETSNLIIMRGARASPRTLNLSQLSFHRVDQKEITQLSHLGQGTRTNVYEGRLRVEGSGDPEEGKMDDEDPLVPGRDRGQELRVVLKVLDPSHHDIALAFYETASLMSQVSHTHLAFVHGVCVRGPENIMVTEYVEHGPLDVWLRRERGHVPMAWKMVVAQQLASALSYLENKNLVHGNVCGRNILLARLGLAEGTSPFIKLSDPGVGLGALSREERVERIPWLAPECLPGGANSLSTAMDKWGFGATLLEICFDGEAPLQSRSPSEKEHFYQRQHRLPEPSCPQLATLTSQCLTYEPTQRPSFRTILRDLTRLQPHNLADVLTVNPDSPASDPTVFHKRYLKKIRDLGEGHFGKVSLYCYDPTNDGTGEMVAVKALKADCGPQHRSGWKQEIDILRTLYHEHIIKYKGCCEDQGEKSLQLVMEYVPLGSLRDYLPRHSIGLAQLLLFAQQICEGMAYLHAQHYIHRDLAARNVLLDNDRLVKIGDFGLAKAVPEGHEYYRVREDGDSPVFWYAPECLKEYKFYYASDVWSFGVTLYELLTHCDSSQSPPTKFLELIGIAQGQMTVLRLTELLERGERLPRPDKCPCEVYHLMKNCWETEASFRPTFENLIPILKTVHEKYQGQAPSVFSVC
Effect on: enzyme activity
Mode: inhibitor
Concentration: 0.5 µM
Baseline: control
The remaining activity of `COc1ccc2c(c1)c(C1=C(c3c[nH]c4ccccc34)C(=O)NC1=O)cn2CCCN(C)C` is reported as 126%.
`O=C1Nc2ccc(Br)cc2/C1=C/c1cc2c([nH]1)CCCC2` has a remaining activity of 86%.
With `O=C1Cc2c([nH]c3ccc(Br)cc23)-c2ccccc2N1` the remaining activity was 81.7%.
For `O=Nc1c(-c2c(O)[nH]c3cc(Br)ccc23)[nH]c2ccccc12`, the remaining activity was 25.6%.
The remaining activity of `O=C1NC(=O)c2c1c1c3ccccc3[nH]c1n1cncc21` is reported as 85.4%.
For `CN1CCN(c2ccc3nc(-c4c(N)c5c(F)cccc5[nH]c4=O)[nH]c3c2)CC1`, the remaining activity was 59.4%.
`COc1cccc(-c2cc(=O)c3ccccc3o2)c1N` has a remaining activity of 92.7%.
`CCCNC(=O)Nc1ccc(Oc2ncnc3cc(OC)c(OC)cc23)cc1Cl` has a remaining activity of 95.2%.
For `O=C1Nc2ccccc2/C1=C\c1c(Cl)[nH]c2ccccc12`, the remaining activity was 110%.

Set 2
Structure (SMILES): CC(=O)N[C@@H](Cc1c[nH]c2ccccc12)C(=O)N[C@@H](CCC(=O)C=[N+]=[N-])C(=O)OC(C)C
Host: C57BL/6 CES1-/- mice, MC-38 tumour
Dose: dose not given
Added: anti-PD-1
Baseline: initial
The body weight was 98.7% and 99.3% and 93.9% and 98.8% and 96.3% and 95.9% and 98.2% (day 19 after inoculation).
For day 28 after inoculation: body weight read 97.3% and 96.1% and 97.6% and 95.6% and 91.8% and 92.5% and 95.4%.
day 24 after inoculation — body weight: 93.5% and 97.2% and 96.5% and 99.2% and 97.4% and 96.8% and 100%.
The body weight was 94.6% and 94.3% and 103% and 97.9% and 91.8% and 99.5% (day 45 after inoculation).
For day 32 after inoculation: body weight read 98.4% and 96.8% and 93.7% and 100% and 97.4% and 92.9% and 97.3%.
It gave 100% and 97.7% and 93.5% and 94.9% and 95.9% and 95.7% and 102% for body weight (day 22 after inoculation).
It gave 100% and 97.5% and 101% and 99.3% and 99.5% and 97.3% for body weight (day 17 after inoculation).

Set 3
Compound: COc1cc(C(=O)N2CCC(N3CCN(C)CC3)CC2)ccc1Nc1ncc2c(n1)N(C)c1ccccc1C(=O)N2C
It gave 21.8% for inhibition (mouse PIP5K3; probe labelling, KiNativ ADP probe; mouse brain lysate; 0.1 µM, ATP site).
RSK1 domain 1 (mouse); probe labelling, inhibitor, KiNativ ActivX ADP probe; mouse brain lysate; 0.1 µM, Lys1 site peptide — inhibition: 3.6% and 3.1%.
mouse FAK; probe labelling, KiNativ ATP probe; mouse brain lysate; 0.1 µM — inhibition: -4.1%.
For mouse BRSK2 and CHK1; probe labelling, KiNativ ADP probe; mouse brain lysate; 1 µM, LYS2 site DIkPENLLLDER: inhibition read -14.7%.
RSKL1 kinase domain 1 (human); probe labelling, KiNativ, refers to: kinase domain site peptide; PBMC lysate (human); 0.1 µM, added: ADP acyl-phosphate probe — inhibition: 2.5%.
For human PBMC; probe labeling, inhibitor, KiNativ profiling, refers to: DIkPDNLLLDSK; cell lysate; concentration not given, LYS2 site, added: ATP acyl-phosphate probe: inhibition read -2.3%.
For ACK (mouse); probe labelling, KiNativ, refers to: Lys1 site peptide; brain tissue lysate (mouse); 0.1 µM, added: ADP acyl-phosphate probe: inhibition read 3.6%.
It gave -3.6% for inhibition (human PBMC; probe labeling, inhibitor, KiNativ profiling, refers to: APVAIkVFK; cell lysate; concentration not given, LYS1 site, added: ATP acyl-phosphate probe).

Set 4
SMILES: O=C(NCCCC1CCCCC1)c1ccc(CNC(=O)c2cnn(-c3ccccc3)c2C(F)(F)F)cc1
Effect on: cell-free assay
Technique: competition with immobilised ligand
Concentration: 0.1 µM
The remaining binding was 100% (CAMK2D (Homo sapiens, UniProt Q13557)).
The remaining binding was 100% (PRKCD (Homo sapiens, UniProt Q05655)).
FLT3 (Homo sapiens, UniProt P36888, D835V) — remaining binding: 88%.
For BMX (Homo sapiens, UniProt P51813): remaining binding read 75%.
The remaining binding was 100% (PRKAA2 (Homo sapiens, UniProt P54646)).
The remaining binding was 100% (FLT4 (Homo sapiens, UniProt P35916)).
The remaining binding was 89% (Tyrosine-protein kinase JAK1, JH2 (JAK1, Homo sapiens, UniProt P23458)).
For STK32A (Homo sapiens, UniProt Q8WU08): remaining binding read 76%.
The remaining binding was 100% (Non-receptor tyrosine-protein kinase TYK2, JH2 (TYK2, Homo sapiens, UniProt P29597)).
The remaining binding was 96% (CAMK2B (Homo sapiens, UniProt Q13554)).
It gave 100% for remaining binding (ULK2 (Homo sapiens, UniProt Q8IYT8)).
For CSNK1D (Homo sapiens, UniProt P48730): remaining binding read 100%.
It gave 97% for remaining binding (WEE1 (Homo sapiens, UniProt P30291)).
It gave 100% for remaining binding (CDK18 (Homo sapiens, UniProt Q07002)).
FLT3 (Homo sapiens, UniProt P36888, F691L/ITD) — remaining binding: 100%.
For GRK2 (Homo sapiens, UniProt P25098): remaining binding read 100%.
It gave 100% for remaining binding (MAP4K2 (Homo sapiens, UniProt Q12851)).
For AKT3 (Homo sapiens, UniProt Q9Y243): remaining binding read 97%.

A few entries again (set 4):
FLT3 (Homo sapiens, UniProt P36888, F691L/ITD) — remaining binding: 100%.
For GRK2 (Homo sapiens, UniProt P25098): remaining binding read 100%.
It gave 100% for remaining binding (MAP4K2 (Homo sapiens, UniProt Q12851)).
For AKT3 (Homo sapiens, UniProt Q9Y243): remaining binding read 97%.
